Results of several laboratories.
Numbered parts are unrelated; each lists some results of a single study. Changes are numbered by the printed parent chain.

Series 1 — target: CCNA1, cyclin fold, Cln2 fusion (human); technique: yeast growth competition, sequencing; sample: yeast; notes: weak parent motif; reference: not given; direction: higher = stronger binding
Starting sequence: SAMHD1 docking peptide (human); ASKSRVQLFKDDP; partner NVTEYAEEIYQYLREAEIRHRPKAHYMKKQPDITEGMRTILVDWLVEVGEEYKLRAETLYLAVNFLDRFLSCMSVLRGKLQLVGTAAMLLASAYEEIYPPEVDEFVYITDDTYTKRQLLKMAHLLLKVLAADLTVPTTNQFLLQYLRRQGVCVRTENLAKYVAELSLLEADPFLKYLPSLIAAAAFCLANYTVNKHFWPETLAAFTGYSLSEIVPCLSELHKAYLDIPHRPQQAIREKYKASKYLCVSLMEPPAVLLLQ
Substitution | normalised enrichment score
ASPSRVQLFKDDP [K3P] | -0.337
ASWSRVQLFKDDP [K3W] | 0.149
ASKSRVQVFKDDP [L8V] | 0.163
ASKSRWQLFKDDP [V6W] | 0.0285
ASKSRVHLFKDDP [Q7H] | 0.58
ASDSRVQLFKDDP [K3D] | -0.0276
ADKSRVQLFKDDP [S2D] | 0.513
ASKSRVQNFKDDP [L8N] | 0.268
ACKSRVQLFKDDP [S2C] | 0.34
ASKSRVNLFKDDP [Q7N] | 0.134
ASKSRVQLHKDDP [F9H] | 0.446
ASKGRVQLFKDDP [S4G] | 0.0313
ASVSRVQLFKDDP [K3V] | 0.287
ASKSRPQLFKDDP [V6P] | -0.215
ASMSRVQLFKDDP [K3M] | 0.0703
AWKSRVQLFKDDP [S2W] | -0.0893
ASHSRVQLFKDDP [K3H] | 0.387
ASASRVQLFKDDP [K3A] | 0.428
ASKSRVQWFKDDP [L8W] | 0.123
ASKSRVQLWKDDP [F9W] | 0.367
ASKTRVQLFKDDP [S4T] | 0.419
ASKPRVQLFKDDP [S4P] | 0.171
ASKSRVQSFKDDP [L8S] | 0.32
ASQSRVQLFKDDP [K3Q] | -0.144
ASKSRVFLFKDDP [Q7F] | -0.0443

Series 2 — technique: RNA Bind-n-Seq; molecule type: RNA; sample: in vitro; concentration: 365 nM; reference: no-protein control; direction: higher = stronger binding
Target: RNA binding protein fox-1 homolog 2, RRM domain, GST-SBP tag (RBFOX2, Homo sapiens, UniProt O43251-10, residues 100-194)
Notes: natural RNA segment, single round, ends assumed
All sequences stand within: GGGAGUUCUACAGUCCGACGAUC … UGGAAUUCUCGGGUGCCAA
Target sequence (chain): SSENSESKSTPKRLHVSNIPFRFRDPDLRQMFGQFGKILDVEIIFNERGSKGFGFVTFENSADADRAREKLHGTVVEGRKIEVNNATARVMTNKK
Sequence | RBNS enrichment (R)
UUAUAGAGAAUUUGAUCUGCUCCGUGUGCGCUCUCUGCUAUUAGCCGGAGCUAUUUAUGGCAAACACAUGCUUUUGUAUCUUGUCAUAGUCAUCCACAGAUGGCAAAACU | 0.235
GCUUAUUCCGUGUAGAUGCUUGUUUUUGUCCCUGCCUCCGAGGAACUUGUUCAUGAUUGUGCUCUGAACUGCAUGGGGAGUGUGGGGUGCUGCCUUGCUCGCUGUUAUAU | 28.3
UCACAUUAAAAAAUGAAAUAUUUUUUAAUUUAAAGCUUACUCUGUCCAUUUAUCCACAGGAAAGUGUUAUUUUUCAAGGAAGGUUCAUGUAGAGAAAAGCACACUUGUAG | 0.375
AGUCACCAAACUCAGAAAAAACUAGCUGUGUGAGCAGCACCGUACCCUAGCGGUCUUCAGACAUUAAGUUCACGUCAUCCACUGAAAGGAAGGGUCCUUGCGUUGACAGC | 0.3
UUAUGUGGCCGUUUCUUUGUUUCUUUGAACAGUGGGAUUUUCAGUGAAAAAGUACCCUCUUUUUCAUUUCCUAUUGCAGUGGUCACAGCUAAUAGUGUCUGAACAUGGUU | 0.255
AGACACUGCCGGACUCCUGCCCACAGGGGCGUGGCCUGAAGGGCGAGUGUGAACAUGGCACUGCUGUUCCCUUCCCCCUCCCUGCACCCGCCGCAGCCUGCCAUCCCAUU | 0.767
UACUAAAAAGAUUCCUCGUUAUUGUUGUUGCCAAAGAGAAACAAAAAUGAUUUUGCUUUCCAAGCUUGGUUUGUGGCGUCUCCCUCGCAGAGCCCUUCUCGUUUCUUUUU | 0.371
AGCUGGGCCCAGUUUGGCCAUGCCUGCUGGCACAGACGCCUUAACUGUGUGGAUGACUGUGUGACUGGGAGCCUGGACCGGCUGACAGGCCAUGAGCUACCCACUGGCAU | 1.77
GCUGAUUACAAAGGGGAAGAGUUGAACAGACAUCAGGGGCCGAUGAAACCAAAGGACUAGGAGUCAGGAGAACAAGUCAGGGAUUAGGAGACAGCGGUUUGGUUUAUUGU | 0.921
CUUUAUUAGAAAGCAUUUUCUAGGUGUGUUUAGUGUACAAAGAGACUUUAUAACCCUUACUGGACAACACACAGAUCCUUGAGCUCACGCUGCAGGAUAGUACAGUUUUA | 0.341
AUAUGGUUUUGUCAGGUGUGUAAAUUUGCAAAUUGUUUCCUUUAUAUAUGUAUGUAUAUAUAUAUAUGAAAAUAUAUAUAUAUAUGAAAAAUAAAGCUUAAUUGUCCCAG | 1.67
CCUCCAAGCGGCCCUGUGUGUUUGACAUGUGAAGCUAUUUGAUAUGCACCAGGUCUCAAGGUUCUCAUUUCUCAGGUGACGUGAUUCUAAGGCAGGAAUUUGAGAGUUCA | 1.18

Series 3 — technique: universal PBM; molecule type: double-stranded DNA, one strand shown; sample: in vitro; concentration: 600 nM; direction: higher = stronger binding
Target: Sal-like protein 4, full length isoform A (SALL4, Homo sapiens, UniProt Q9UJQ4, residues 1-1053)
UniProt Q9UJQ4, sequence (whole entry, looked up): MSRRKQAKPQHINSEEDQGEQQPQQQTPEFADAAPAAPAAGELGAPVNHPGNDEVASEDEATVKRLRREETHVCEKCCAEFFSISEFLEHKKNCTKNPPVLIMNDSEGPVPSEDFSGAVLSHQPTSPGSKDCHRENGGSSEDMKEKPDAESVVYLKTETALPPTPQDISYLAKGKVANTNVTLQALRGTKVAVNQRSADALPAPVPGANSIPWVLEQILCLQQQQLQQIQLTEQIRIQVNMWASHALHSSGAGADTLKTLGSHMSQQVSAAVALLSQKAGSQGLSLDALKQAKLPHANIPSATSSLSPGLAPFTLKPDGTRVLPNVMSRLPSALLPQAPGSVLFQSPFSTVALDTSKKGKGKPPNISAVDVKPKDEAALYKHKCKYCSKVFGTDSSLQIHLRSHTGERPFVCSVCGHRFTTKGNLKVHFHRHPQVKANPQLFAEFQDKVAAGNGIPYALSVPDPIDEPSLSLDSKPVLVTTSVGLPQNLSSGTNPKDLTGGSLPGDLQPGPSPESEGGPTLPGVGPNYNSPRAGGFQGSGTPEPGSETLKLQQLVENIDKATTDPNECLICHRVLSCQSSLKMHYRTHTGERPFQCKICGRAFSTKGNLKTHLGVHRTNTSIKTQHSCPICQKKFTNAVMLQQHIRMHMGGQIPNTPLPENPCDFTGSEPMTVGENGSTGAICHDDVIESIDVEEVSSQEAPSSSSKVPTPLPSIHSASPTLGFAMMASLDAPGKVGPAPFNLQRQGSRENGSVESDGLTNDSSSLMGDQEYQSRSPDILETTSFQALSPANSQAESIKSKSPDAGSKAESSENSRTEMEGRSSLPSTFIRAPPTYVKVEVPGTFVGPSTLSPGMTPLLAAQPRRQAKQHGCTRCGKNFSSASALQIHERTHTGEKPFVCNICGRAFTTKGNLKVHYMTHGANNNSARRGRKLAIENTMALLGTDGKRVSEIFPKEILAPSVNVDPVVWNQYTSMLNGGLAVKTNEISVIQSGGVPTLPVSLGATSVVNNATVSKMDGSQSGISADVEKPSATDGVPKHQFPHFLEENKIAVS
Notes: 8-mer, flanks averaged, mean of replicates
Sequence | E-score
ATAGCGTG | 0.0662
ACGGAGTA | -0.0809
GGCGTTAA | -0.105
TAGTCAGA | 0.0233
CTAAACAA | 0.132
ACCGACGA | -0.13
TAAGTAGA | 0.184
CTGTAATA | 0.315
GCCTGGAA | -0.125
CGGTGATC | -0.216
CATAAGAC | 0.253
AGCTCCTA | -0.133
CCCACTAC | -0.244
CCGACTCA | -0.0917
GCCGTTAC | -0.144
ATGGTCCG | -0.157
CTTACACA | 0.0213
GCGGTGAC | -0.175
GCGTTTAC | -0.136
ACTATGTG | 0.15
TAGGCCAA | -0.00532
CGCTGTCA | -0.335
ATTCGCCC | -0.166
CTCCTATC | -0.0469

Series 4 — technique: protein binding microarray; molecule type: double-stranded DNA, one strand shown; sample: in vitro; concentration: not given; reference: not given; direction: higher = stronger binding
Target: Histone acetyltransferase KAT6A, both winged helices, GST fusion (KAT6A, Homo sapiens, UniProt Q92794, residues 1-181)
Notes: 8-mer, flanks averaged, mean of 2 arrays, mostly near background
Target sequence (chain): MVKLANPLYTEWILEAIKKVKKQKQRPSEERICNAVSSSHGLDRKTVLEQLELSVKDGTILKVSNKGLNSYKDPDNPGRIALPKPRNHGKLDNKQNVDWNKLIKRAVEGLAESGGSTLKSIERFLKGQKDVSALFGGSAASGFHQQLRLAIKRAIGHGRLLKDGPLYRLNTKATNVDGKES
Sequence | E-score
AATTTCCA | -0.0712
GAAGCAAC | -0.0855
GCACACTA | -0.107
GGCTTTAA | -0.12
ATTGTACG | 0.0196
AAGCAAGT | -0.0885
ACTGAGAT | -0.226
GGGTTAGA | -0.118
AGGCCATG | -0.195
TGCTAACA | -0.12
AACGGTGG | -0.0816
AATTAAAA | -0.026
AGGATGCG | -0.075
AGGAGGTC | -0.18
GCCCTAAA | 0.0729
CGACGTGC | 0.0592
TACCACTA | -0.121
AATATGGC | -0.00745
ATACATAA | -0.121

Excerpt of the above (series 3):
Sequence | E-score
ACTATGTG | 0.15
ATTCGCCC | -0.166
GCGGTGAC | -0.175
TAAGTAGA | 0.184
TAGGCCAA | -0.00532
CTAAACAA | 0.132
AGCTCCTA | -0.133
ATGGTCCG | -0.157
ATAGCGTG | 0.0662
CCCACTAC | -0.244
CATAAGAC | 0.253
